Experimental data gathered from unrelated publications.
Protocols differ between the studies behind these lines. ± gives the spread as reported. Values after ≈ are worked out from the molar mass of the structure shown.

| SMILES | assay | test system | conditions | scale | measurement | value |
| --- | --- | --- | --- | --- | --- | --- |
| N[C@@]1(c2ccccc2Cl)CCC[C@@H](O)C1=O | – | female CD-1 mice, brain | intravenous, 50 mg/kg, 10 min | – | brain concentration | 19.8 µg/g |
| COc1ccc2c(c1)[C@]13CCCC[C@@H]1[C@H](C2)N(C)CC3 | item: MDA | rat, plasma | intraperitoneal, 30 mg/kg, three doses, together with: MDMA 20 mg/kg oral | baseline: MDMA with saline | pharmacokinetics | no effect |
| CN1C(=O)CC(=O)N(c2ccccc2)c2cc(Cl)ccc21 | – | CF-1 mouse, brain | intraperitoneal, 17 mg/kg, 0 to 8 h | – | AUC | 3.89 ng·h/mg |
| CN[C@]1(c2ccccc2Cl)CCCCC1=O | – | human | intravenous, 0.3 mg/kg, 5 min after tracer, pseudo-steady state | – | plasma concentration | 62 ng/mL |
| C#Cc1ccc2c(c1)C(c1ccccc1F)=N[C@@H](C)c1c(C(=O)OCCC)ncn1-2 | metabolic stability | human, liver microsomes | 30 min | – | compound remaining | < 5% |
| CC(C)C[C@@H]1NC(=O)CN(C)C(=O)[C@H](Cc2ccccc2)NCc2cc(c[nH]2)CNC1=O | – | PAMPA | 100 µM, 17 h, pH 6.4 | – | Papp | 0.178 ×10⁻⁶ cm/s |
| C[C@]12CC[C@H]3[C@@H](CCC4=CC(=O)CC[C@@]43C)[C@@H]1CC[C@@H]2O | – | beagle dog, male, liver microsomes | 10 µM, pH 7.4, together with: NADPH | – | half-life | 30 min |
| C[C@H]1CNCCc2ccc(Cl)cc21 | – | male Sprague-Dawley rat, plasma | subcutaneous, pimavanserin 1 + lorcaserin 1 mg/kg, pimavanserin 15 min earlier | – | AUC extrapolated | 7.55 ± 0.52% |
| C=C1C[C@@H]2[C@H](CC[C@]3(C)C(=O)CC[C@@H]23)[C@@]2(C)C=CC(=O)C=C12 | LC-MS/MS | postmenopausal breast cancer women, plasma | oral, 25 mg/day steady state, 2 h post-dose, outlier excluded | – | plasma concentration range | 2.5 to 46.7 ng/mL |
| C#Cc1ccc2c(c1)C(c1ccccn1)=NCc1c(-c3cnco3)ncn1-2.Cl | shake flask | phosphate buffer | 24 h, pH 7, 25 °C | – | solubility | 5400 µg/mL |
| COc1cccc(C2(O)CCCCC2CN(C)C)c1 (centres unmarked) | – | human, plasma | oral, 100 mg, single dose, fasted | – | AUC | 2980 ng·h/mL |
| N#Cc1ccccc1-c1cc(-c2ccccn2)cn(-c2ccccc2)c1=O | – | human, plasma | oral | – | unbound fraction | 0.0136 |
| NC(=O)OC[C@H](N)Cc1ccccc1 | – | male Swiss mouse, brain | oral, 10 mg/kg | – | Tmax | 30 min |
| C=CCN1CC[C@]23c4c5ccc(O)c4O[C@H]2C(=O)CC[C@@]3(O)[C@H]1C5 | mitochondrial swelling | BALB/cByJ female mouse liver mitochondria | 30 min, together with: succinate + rotenone | baseline: CaCl2 maximal swelling | EC20 | > 400 µM |
| CN(C)CCc1c[nH]c2ccc(O)cc12 | – | male FVB/N mouse, serum | intraperitoneal, 2 mg/kg of 5-MeO-DMT, metabolite of 5-MeO-DMT | – | Tmax | ~13 min |
| COc1cccc(C2(O)CCCCC2CN(C)C)c1 (centres unmarked) | mitochondrial swelling | BALB/cByJ female mouse liver mitochondria | 30 min, together with: succinate + rotenone | baseline: CaCl2 maximal swelling | EC20 | > 800 µM |
| Cc1ncc2n1-c1ccc(Cl)cc1C(c1ccccc1F)=NC2 | – | human, CYP3A5*3/*3 non-expressers | oral, compound alone, geometric mean | – | oral clearance | 105 L/h |
| COc1nc2ccc(Br)cc2cc1[C@@H](c1ccccc1)[C@@](O)(CCN(C)C)c1cccc2ccccc12 | – | mouse, BALB/c, plasma | oral, 25 mg/kg, 72 to 168 h terminal | – | t1/2 | 89.3 h |
| CC1N=C(c2ccccc2F)c2cc(NC(C)(C)C)ccc2NC1=O (centres unmarked) | shake flask | PBS | 24 h, pH 7.4 | – | aqueous solubility | 394 µM (≈ 134 µg/mL) |
| C[C@@H]1N=C(c2ccccc2F)c2cc(Br)ccc2NC1=O | – | male Wistar rat, plasma | intraperitoneal, 0.5 mg/kg, 20 min | – | concentration | 188 nM |
| CN1CC[C@@]23CCCC[C@@H]2[C@@H]1Cc1ccc(O)cc13 | – | Wistar rat, both sexes, plasma | oral, 5 mg/kg DEM, DEM 2 h after pretreatment, together with: TCE 400 mg/kg single pretreatment | – | Tmax | 27.6 ± 11.4 min |
| Cc1ncc2n1-c1ccc(Cl)cc1C(c1ccccc1F)=NC2 | – | healthy men, plasma | oral, 7.5 mg, day 19, LS mean, together with: 7 days post amenamevir | – | Cmax | 39 ng/mL |
| COc1ccc2c(c1)[C@]13CCCC[C@@H]1[C@H](C2)N(C)CC3 | – | Wistar rat, both sexes, plasma | oral, 5 mg/kg, 2 h after pretreatment, together with: single TCE 100 mg/kg | – | AUC(0-t) | 226 ± 61.3 ng·h/mL |
| C#Cc1ccc2c(c1)C(c1ccccn1)=NCc1c(-c3cnco3)ncn1-2 | – | Sprague-Dawley rat, plasma | intraperitoneal, 10 mg/kg, 4 h, unbound | – | concentration | 552 nM |
| COc1ccsc1CNCC[C@@]1(c2ccccn2)CCOC2(CCCC2)C1 | – | healthy human, normal hepatic function, plasma | intravenous, 1 mg single dose, arithmetic mean | – | clearance | 728 ± 198 mL/min |
| CCCCCCCCCCC(=O)O[C@H]1CC[C@H]2[C@@H]3CCC4=CC(=O)CC[C@]4(C)[C@H]3CC[C@]12C | – | human blood | 300 ng/mL, 60 min, 4 °C, NaF 5 mg/mL, K2 oxalate 4 mg/mL | – | testosterone concentration | 435 ng/dL |

Repeated from above:
| SMILES | assay | test system | conditions | scale | measurement | value |
| --- | --- | --- | --- | --- | --- | --- |
| COc1ccc2c(c1)[C@]13CCCC[C@@H]1[C@H](C2)N(C)CC3 | item: MDA | rat, plasma | intraperitoneal, 30 mg/kg, three doses, together with: MDMA 20 mg/kg oral | baseline: MDMA with saline | pharmacokinetics | no effect |
| C#Cc1ccc2c(c1)C(c1ccccn1)=NCc1c(-c3cnco3)ncn1-2 | – | Sprague-Dawley rat, plasma | intraperitoneal, 10 mg/kg, 4 h, unbound | – | concentration | 552 nM |
| Cc1ncc2n1-c1ccc(Cl)cc1C(c1ccccc1F)=NC2 | – | human, CYP3A5*3/*3 non-expressers | oral, compound alone, geometric mean | – | oral clearance | 105 L/h |
